Measurements from different studies.
Each numbered part is a random draw from the data of one study; scales do not carry over between parts. Values joined by “and” are separate records of one study, mostly repeats; a detail may differ.

Series 1
Compound: C[C@@H]1CN(c2ccc(-c3cc(C(=O)NCCOCCOCCOCCOCCNC(=O)/C=C/c4[nH]cc(C(=O)N[C@@H](CC(N)=O)c5ccc(F)c(Cl)c5)c4-c4ccc(Cl)cc4F)ccc3F)cc2NC(=O)c2c[nH]c(=O)cc2C(F)(F)F)C[C@H](C)N1C
Effect on: thermal unfolding
Technique: differential scanning fluorimetry
Concentration: 5.5 µM
Direction: higher = more unfolded
WDR5: WD repeat-containing protein 5 (WDR5, Homo sapiens, UniProt P61964)
DCAF1: DDB1- and CUL4-associated factor 1 (DCAF1, Homo sapiens, UniProt Q9Y4B6)
Chain of UniProt Q9Y4B6 (whole entry, looked up): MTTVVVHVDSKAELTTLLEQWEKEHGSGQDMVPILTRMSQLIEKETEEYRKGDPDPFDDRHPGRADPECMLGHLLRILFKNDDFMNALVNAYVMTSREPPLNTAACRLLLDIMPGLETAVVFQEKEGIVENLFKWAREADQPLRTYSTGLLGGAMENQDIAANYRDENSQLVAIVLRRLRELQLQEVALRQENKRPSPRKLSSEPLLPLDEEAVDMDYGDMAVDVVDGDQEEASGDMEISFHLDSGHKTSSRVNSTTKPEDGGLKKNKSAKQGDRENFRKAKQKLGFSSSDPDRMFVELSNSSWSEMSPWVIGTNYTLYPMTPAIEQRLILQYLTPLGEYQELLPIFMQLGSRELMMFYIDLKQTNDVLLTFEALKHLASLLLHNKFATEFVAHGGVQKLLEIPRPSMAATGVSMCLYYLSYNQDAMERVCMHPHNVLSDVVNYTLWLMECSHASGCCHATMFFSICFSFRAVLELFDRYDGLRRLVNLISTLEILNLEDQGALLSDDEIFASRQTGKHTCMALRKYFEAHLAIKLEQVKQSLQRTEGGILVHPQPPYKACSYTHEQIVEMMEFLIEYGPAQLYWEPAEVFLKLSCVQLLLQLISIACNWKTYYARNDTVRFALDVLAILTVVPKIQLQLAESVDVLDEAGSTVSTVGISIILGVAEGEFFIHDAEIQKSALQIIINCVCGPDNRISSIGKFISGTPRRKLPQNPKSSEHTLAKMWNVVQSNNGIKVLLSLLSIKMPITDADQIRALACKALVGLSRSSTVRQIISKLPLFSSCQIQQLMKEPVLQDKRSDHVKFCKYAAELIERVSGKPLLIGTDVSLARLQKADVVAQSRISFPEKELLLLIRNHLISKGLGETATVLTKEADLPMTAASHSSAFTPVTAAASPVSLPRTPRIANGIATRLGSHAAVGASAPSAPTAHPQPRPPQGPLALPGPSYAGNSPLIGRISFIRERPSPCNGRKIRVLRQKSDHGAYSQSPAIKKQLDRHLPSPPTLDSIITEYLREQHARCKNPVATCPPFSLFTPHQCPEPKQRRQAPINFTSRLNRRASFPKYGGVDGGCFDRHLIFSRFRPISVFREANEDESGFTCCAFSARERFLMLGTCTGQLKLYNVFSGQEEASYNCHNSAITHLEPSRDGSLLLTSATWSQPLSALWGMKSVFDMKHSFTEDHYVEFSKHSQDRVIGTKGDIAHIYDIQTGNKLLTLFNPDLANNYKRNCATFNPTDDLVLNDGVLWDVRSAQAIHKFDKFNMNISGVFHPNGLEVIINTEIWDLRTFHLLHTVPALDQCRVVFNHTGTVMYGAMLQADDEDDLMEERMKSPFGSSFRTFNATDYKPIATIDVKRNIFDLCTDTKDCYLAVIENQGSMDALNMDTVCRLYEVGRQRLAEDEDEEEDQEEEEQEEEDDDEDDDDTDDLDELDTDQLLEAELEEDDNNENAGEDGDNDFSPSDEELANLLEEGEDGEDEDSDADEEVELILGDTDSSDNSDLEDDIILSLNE
| target | temperature | SYPRO Orange fluorescence |
| --- | --- | --- |
| WDR5 | 35 °C | 13200 a.u. |
| WDR5 | 81.21 °C | 43900 a.u. |
| DCAF1 | 79.61 °C | 45700 a.u. |
| DCAF1 | 83.01 °C | 42300 a.u. |
| WDR5 | 38 °C | 14000 a.u. |
| WDR5 | 61.01 °C | 15400 a.u. |
| WDR5 | 82.81 °C | 48100 a.u. |
| WDR5 | 58.61 °C | 16200 a.u. |
| DCAF1 | 83.81 °C | 41500 a.u. |
| WDR5 | 59.41 °C | 15800 a.u. |
| DCAF1 | 81.81 °C | 43200 a.u. |

Series 2
Host: female CD-1 mouse
Medium: plasma
Route: oral
Dose: 60 mg/kg
| SMILES | half-life [h] |
| --- | --- |
| Cc1ccc(O)c(C)c1-c1cnc2[nH]c(-c3cnc(N4CCC5(CC4)CC(N4CCN(c6ccc(NC7CCC(=O)NC7=O)cc6F)CC4)CO5)nc3)cc2c1C#N (centres unmarked) | 2.6 |
| Cc1ccc(O)c(C)c1-c1cnc2[nH]c(-c3cnc(N4CCC(CCN5CCN(c6ccc(NC7CCC(=O)NC7=O)cc6F)CC5)CC4)nc3)cc2c1C#N (centres unmarked) | 3.1 |
| Cc1ccc(O)c(C)c1-c1cnc2[nH]c(-c3cnc(N4CCC(CN5CCN(c6cc7c(cc6F)c(N6CCC(=O)NC6=O)nn7C)CC5)CC4)nc3)cc2c1C#N | 2.4 |
| Cc1ccc(O)c(C)c1-c1cnc2[nH]c(-c3cnc(N4CCC(CN5CCN(c6ccc(NC7CCC(=O)NC7=O)cc6F)CC5)CC4)nc3)cc2c1C#N (centres unmarked) | 2.7 |
| Cc1ccc(O)c(C)c1-c1cnc2[nH]c(-c3cnc(N4CCC(CN5CCN(c6ccc7c(c6)C(=O)N(C6CCC(=O)NC6=O)C7=O)CC5)CC4)nc3)cc2c1C#N (centres unmarked) | 4 |
| Cc1ccc(O)c(C)c1-c1cnc2[nH]c(-c3cnc(N4CCC(CN5CCN(c6ccc7c(c6F)CN(C6CCC(=O)NC6=O)C7=O)CC5)CC4)nc3)cc2c1C#N (centres unmarked) | 2.3 |

Series 3
SMILES: CCN1CCN(Cc2ccc(COc3c(-c4c(C)c(F)cc5[nH]ncc45)c(C4CC4)cc4c(N5C[C@@H]6C[C@H]5CN6)nc(OC5CCOCC5)nc34)cc2)C(=O)C1
Technique: in-cell ELISA
| cell line | concentration | time | phospho-ERK1/2 level |
| --- | --- | --- | --- |
| AsPC-1 (KRAS G12D) | 100 nM | 24 h | 95.8% and 93.2% and 97% and 99.2% |
| AsPC-1 | 1 µM | 2 h | 1.6% and 3.8% and 4.7% and 3.7% |
| AsPC-1 (KRAS G12D) | 1 µM | 24 h | 29.7% and 30% and 28.4% and 31.4% |
| AsPC-1 (KRAS G12D) | 10 µM | 24 h | 18.1% and 23.8% and 18.7% and 21.9% |
| AsPC-1 (KRAS G12D) | 1 nM | 24 h | 98.4% and 97.4% and 104% and 106% |
| AsPC-1 (KRAS G12D) | 10 nM | 24 h | 107% and 102% and 99.5% |
| AsPC-1 | 10 µM | 2 h | 11.7% and 6.7% and 7.6% and 9.5% |
| AsPC-1 | 3 µM | 2 h | 2.3% and 1.4% and 2.6% and 3.9% |

Series 4
Target: E3 ubiquitin-protein ligase NEDD4, HECT domain (Homo sapiens, UniProt P46934)
Effect on: enzyme activity
Action: inhibitor
Technique: Ub-TR-FRET
Medium: HECT domain
Concentration: 0.04572 µM
Direction: higher = more chain formation
Residues (P46934 938-1319, limits assumed): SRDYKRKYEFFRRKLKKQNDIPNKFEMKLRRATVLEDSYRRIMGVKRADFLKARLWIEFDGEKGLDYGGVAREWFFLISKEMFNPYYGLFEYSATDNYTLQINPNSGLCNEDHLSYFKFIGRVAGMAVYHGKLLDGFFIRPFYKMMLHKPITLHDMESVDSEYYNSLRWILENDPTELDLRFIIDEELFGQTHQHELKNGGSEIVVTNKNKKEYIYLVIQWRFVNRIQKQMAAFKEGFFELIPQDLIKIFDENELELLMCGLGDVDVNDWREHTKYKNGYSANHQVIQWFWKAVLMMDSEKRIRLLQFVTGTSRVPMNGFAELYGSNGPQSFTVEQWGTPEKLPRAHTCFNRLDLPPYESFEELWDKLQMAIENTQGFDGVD
| Compound | ubiquitin chain formation AUC |
| --- | --- |
| CNC(=O)/C=C/CNCCCN1c2ccccc2CCc2ccc(Cl)cc21.Cl | 131000 a.u. and 132000 a.u. and 128000 a.u. |
| CNC(=O)/C=C/CNCCCCN1c2ccccc2CCc2ccc(Cl)cc21.Cl | 68200 a.u. and 70900 a.u. and 87600 a.u. and 89600 a.u. and 85900 a.u. and 70500 a.u. |
| CCONC(=O)/C=C/CNCCCCN1c2ccccc2CCc2ccc(Cl)cc21.O=C(O)/C=C\C(=O)O | 33200 a.u. and 36300 a.u. and 25600 a.u. and 36100 a.u. and 25400 a.u. and 23800 a.u. |
| CC(C)ONC(=O)/C=C/CNCCCCN1c2ccccc2CCc2ccc(Cl)cc21.O=C(O)/C=C\C(=O)O | 36300 a.u. and 38500 a.u. and 31700 a.u. and 36900 a.u. and 30300 a.u. and 31500 a.u. |
| CN(C)C/C=C/C(=O)NCCCN1c2ccccc2CCc2ccc(Cl)cc21 | 132000 a.u. and 133000 a.u. and 131000 a.u. |
| CCOC(=O)/C=C/CNCCCCN1c2ccccc2C(=O)N(C)c2ccc(Cl)cc21.O=C(O)/C=C\C(=O)O | 95300 a.u. and 98100 a.u. and 98300 a.u. |
| CCOC(=O)/C=C/CN(CC)CCCCN1c2ccccc2CCc2ccc(Cl)cc21.O=C(O)/C=C\C(=O)O | 93200 a.u. and 93700 a.u. and 97100 a.u. and 101000 a.u. and 87900 a.u. and 96000 a.u. |
| N#C/C=C/CNCCCCN1c2ccccc2CCc2ccc(Cl)cc21.O=C(O)/C=C\C(=O)O | 86400 a.u. and 81900 a.u. and 96200 a.u. and 94800 a.u. and 87500 a.u. and 68800 a.u. |
| CCOC(=O)/C=C/CNCCCCN1c2cc(Cl)ccc2C(=O)N(C)c2ccccc21.O=C(O)/C=C\C(=O)O | 90300 a.u. and 89800 a.u. and 91200 a.u. |
| CCOC(=O)/C=C/CNCCCN1c2ccccc2CCc2ccc(Cl)cc21 | 44900 a.u. and 45000 a.u. and 46500 a.u. |

Excerpt of the above (series 3):
| cell line | concentration | time | phospho-ERK1/2 level |
| --- | --- | --- | --- |
| AsPC-1 (KRAS G12D) | 1 nM | 24 h | 98.4% and 97.4% and 104% and 106% |
| AsPC-1 (KRAS G12D) | 100 nM | 24 h | 95.8% and 93.2% and 97% and 99.2% |
| AsPC-1 (KRAS G12D) | 10 nM | 24 h | 107% and 102% and 99.5% |
| AsPC-1 | 1 µM | 2 h | 1.6% and 3.8% and 4.7% and 3.7% |
| AsPC-1 | 10 µM | 2 h | 11.7% and 6.7% and 7.6% and 9.5% |
